Published values from different studies.
Each numbered part is a random draw from the data of one study; scales do not carry over between parts.
Sequence of UniProt Q9H4A3 (whole entry, looked up): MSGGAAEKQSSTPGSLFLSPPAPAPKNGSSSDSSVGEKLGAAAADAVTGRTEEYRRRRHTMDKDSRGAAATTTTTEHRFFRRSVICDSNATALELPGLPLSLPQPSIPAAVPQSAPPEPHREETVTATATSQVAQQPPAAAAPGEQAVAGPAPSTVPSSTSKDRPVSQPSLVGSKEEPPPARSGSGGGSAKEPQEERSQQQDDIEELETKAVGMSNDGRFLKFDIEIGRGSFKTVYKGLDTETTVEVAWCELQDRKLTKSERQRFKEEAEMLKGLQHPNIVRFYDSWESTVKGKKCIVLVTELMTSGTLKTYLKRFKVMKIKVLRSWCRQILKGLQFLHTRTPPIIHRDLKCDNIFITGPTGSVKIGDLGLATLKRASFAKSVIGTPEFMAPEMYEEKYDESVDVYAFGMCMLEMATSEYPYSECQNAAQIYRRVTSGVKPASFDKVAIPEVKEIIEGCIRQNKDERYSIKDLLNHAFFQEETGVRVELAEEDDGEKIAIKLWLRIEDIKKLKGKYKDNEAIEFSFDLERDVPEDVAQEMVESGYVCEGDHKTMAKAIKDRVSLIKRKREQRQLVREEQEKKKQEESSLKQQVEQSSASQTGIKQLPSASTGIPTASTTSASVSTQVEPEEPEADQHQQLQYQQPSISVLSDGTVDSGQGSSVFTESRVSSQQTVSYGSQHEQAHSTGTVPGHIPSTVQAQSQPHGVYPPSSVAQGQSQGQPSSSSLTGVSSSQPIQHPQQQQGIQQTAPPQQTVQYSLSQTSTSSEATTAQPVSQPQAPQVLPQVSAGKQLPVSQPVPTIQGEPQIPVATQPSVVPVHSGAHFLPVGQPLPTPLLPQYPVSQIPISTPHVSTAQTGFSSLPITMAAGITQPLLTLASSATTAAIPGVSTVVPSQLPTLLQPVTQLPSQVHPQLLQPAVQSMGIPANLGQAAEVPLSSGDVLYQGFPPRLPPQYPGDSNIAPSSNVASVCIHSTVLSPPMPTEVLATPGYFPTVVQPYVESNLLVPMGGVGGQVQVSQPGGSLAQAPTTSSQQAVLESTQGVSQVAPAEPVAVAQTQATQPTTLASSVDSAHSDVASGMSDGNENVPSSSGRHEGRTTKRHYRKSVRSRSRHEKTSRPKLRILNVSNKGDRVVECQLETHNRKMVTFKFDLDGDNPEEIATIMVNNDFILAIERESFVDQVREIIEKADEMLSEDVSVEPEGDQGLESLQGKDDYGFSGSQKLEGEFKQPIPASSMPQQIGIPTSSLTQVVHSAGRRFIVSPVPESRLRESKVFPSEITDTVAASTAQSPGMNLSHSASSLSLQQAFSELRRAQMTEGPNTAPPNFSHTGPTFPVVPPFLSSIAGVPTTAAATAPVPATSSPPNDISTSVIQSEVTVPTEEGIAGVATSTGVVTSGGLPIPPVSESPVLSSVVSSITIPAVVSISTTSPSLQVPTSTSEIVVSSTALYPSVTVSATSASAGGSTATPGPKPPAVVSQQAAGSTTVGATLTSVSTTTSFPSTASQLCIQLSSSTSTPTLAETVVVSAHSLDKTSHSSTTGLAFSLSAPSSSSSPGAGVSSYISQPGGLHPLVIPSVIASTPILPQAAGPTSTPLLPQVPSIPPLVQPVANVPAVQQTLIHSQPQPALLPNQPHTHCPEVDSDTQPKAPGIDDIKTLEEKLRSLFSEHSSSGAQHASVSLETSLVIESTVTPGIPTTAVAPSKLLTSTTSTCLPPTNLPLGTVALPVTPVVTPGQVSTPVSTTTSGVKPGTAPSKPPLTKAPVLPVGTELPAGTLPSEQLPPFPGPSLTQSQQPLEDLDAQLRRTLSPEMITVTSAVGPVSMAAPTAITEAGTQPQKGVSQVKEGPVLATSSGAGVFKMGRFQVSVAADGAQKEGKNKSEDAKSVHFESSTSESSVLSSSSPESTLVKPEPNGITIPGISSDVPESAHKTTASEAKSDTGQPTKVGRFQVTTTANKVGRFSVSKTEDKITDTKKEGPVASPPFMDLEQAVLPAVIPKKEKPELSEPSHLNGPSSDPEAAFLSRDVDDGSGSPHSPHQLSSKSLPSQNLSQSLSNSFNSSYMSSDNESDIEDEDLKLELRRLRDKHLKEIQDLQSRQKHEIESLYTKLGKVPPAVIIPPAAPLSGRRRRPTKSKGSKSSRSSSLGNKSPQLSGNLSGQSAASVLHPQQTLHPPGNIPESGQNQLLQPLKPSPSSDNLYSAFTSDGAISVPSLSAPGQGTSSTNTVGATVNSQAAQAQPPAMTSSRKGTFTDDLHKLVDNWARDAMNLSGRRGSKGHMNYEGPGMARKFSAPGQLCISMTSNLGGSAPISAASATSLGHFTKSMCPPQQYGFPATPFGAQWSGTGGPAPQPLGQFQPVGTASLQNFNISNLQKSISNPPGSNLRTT
Sequence of UniProt P07948 (whole entry, looked up): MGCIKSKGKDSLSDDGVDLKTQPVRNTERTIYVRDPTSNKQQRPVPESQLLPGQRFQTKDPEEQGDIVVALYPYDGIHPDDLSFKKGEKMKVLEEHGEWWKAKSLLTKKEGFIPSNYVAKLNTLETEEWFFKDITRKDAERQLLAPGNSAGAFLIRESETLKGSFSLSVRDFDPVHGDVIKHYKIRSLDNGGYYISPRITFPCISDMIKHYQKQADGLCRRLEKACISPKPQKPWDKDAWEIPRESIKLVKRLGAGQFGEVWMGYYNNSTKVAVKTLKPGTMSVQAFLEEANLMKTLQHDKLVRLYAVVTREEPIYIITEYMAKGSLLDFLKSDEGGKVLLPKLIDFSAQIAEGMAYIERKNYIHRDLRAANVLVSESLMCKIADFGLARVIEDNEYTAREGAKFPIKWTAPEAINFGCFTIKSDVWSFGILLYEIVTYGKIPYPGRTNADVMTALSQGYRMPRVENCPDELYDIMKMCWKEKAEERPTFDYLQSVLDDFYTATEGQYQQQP
Sequence of UniProt P07949 (whole entry, unmodified, looked up): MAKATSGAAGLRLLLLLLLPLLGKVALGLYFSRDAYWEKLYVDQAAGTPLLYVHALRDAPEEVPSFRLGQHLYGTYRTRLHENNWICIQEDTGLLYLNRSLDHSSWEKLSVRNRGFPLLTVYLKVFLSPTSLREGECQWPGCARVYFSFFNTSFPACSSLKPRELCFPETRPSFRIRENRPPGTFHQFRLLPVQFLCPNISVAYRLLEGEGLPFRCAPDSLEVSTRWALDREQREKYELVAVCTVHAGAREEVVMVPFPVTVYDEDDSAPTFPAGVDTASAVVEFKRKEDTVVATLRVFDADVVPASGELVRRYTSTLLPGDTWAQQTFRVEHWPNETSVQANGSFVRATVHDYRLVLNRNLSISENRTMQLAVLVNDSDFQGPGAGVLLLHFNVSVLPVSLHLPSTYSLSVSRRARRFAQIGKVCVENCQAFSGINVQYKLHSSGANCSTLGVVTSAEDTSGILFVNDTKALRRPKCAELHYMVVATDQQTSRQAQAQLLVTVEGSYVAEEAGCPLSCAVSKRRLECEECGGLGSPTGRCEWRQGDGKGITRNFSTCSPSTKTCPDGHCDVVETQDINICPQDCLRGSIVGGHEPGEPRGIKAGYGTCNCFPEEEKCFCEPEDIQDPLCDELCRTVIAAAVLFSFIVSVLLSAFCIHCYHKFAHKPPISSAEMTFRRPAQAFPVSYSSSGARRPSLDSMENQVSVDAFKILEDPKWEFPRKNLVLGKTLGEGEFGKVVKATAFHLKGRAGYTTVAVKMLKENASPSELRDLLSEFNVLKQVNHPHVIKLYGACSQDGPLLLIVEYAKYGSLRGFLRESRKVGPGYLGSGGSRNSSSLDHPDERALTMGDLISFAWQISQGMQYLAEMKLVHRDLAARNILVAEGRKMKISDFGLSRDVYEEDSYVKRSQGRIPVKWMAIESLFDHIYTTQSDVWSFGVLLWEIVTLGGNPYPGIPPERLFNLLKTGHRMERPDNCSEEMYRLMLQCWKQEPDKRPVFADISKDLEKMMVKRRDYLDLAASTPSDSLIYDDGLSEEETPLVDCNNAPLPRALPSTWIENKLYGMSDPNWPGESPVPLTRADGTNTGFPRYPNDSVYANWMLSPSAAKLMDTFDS
Sequence of UniProt P51812 (whole entry, looked up): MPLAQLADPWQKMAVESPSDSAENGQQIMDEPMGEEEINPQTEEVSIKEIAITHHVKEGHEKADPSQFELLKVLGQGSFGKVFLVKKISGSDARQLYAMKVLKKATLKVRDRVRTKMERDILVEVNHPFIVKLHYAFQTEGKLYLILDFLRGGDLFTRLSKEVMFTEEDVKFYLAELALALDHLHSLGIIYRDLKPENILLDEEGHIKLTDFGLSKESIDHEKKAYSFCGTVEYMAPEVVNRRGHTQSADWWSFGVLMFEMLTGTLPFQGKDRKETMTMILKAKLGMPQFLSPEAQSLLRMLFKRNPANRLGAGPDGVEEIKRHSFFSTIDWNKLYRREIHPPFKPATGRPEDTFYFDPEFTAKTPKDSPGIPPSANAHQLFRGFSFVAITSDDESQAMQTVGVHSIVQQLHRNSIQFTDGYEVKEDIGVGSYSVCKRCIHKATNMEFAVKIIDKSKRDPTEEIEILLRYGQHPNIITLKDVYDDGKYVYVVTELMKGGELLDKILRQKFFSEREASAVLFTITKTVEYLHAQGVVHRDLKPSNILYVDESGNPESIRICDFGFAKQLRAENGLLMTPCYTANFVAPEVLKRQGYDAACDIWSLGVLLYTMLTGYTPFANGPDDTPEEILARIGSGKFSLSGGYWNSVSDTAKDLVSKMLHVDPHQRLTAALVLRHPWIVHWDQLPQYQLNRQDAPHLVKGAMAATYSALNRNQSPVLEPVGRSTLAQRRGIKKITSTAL

Study 1
SMILES: C=CC(=O)N1CCC([C@@H]2CCNc3c(C(N)=O)c(-c4ccc(Oc5ccccc5)cc4)nn32)CC1
Tested at: 1 µM
target | test | inhibition [%]
Ankyrin repeat and protein kinase domain-containing protein 1 (ANKK1, Homo sapiens, UniProt Q8NFD2) | cell-free assay | 0
Serine/threonine-protein kinase 32C (STK32C, Homo sapiens, UniProt Q86UX6) | enzyme activity, inhibitor | 2
Serine/threonine-protein kinase WNK1 (WNK1, Homo sapiens, UniProt Q9H4A3) | enzyme activity, inhibitor | 7
Platelet-derived growth factor receptor beta (PDGFRB, Homo sapiens, UniProt P09619) | enzyme activity, inhibitor | 9
Serine/threonine-protein kinase 26 (STK26, Homo sapiens, UniProt Q9P289) | enzyme activity, inhibitor | 1
Serine/threonine-protein kinase PLK2 (PLK2, Homo sapiens, UniProt Q9NYY3) | enzyme activity, inhibitor | 8
Ribosomal protein S6 kinase alpha-3, C-terminal kinase domain (RPS6KA3, Homo sapiens, UniProt P51812) | inhibitor | 0
SRSF protein kinase 1 (SRPK1, Homo sapiens, UniProt Q96SB4) | enzyme activity, inhibitor | 0
Rho-associated protein kinase 1 (ROCK1, Homo sapiens, UniProt Q13464) | enzyme activity, inhibitor | 37
Phosphatidylinositol 3-kinase C2 domain-containing subunit gamma (PIK3C2G, Homo sapiens, UniProt O75747) | inhibitor | 19
Serine/threonine-protein kinase PAK 5 (PAK5, Homo sapiens, UniProt Q9P286) | enzyme activity, inhibitor | 15
Rho-associated protein kinase 2 (ROCK2, Homo sapiens, UniProt O75116) | enzyme activity, inhibitor | 11
Proto-oncogene tyrosine-protein kinase receptor Ret (RET, Homo sapiens, UniProt P07949, M918T) | enzyme activity, inhibitor | 5

Study 2
Cell line: normal-adjacent organoid sample E
Technique: CellTiter-Glo
Tested at: 1 µM
Notes: replicate mean
Relative to: DMSO
SMILES | viability [%]
CN(C)C(=O)Cn1cc(-c2ccc(-c3cncc4ccccc34)cc2)cn1 | 109
Cc1c(NC(=O)c2cc(C(N)=O)nc3cc(F)ccc23)c(C(F)(F)F)nn1Cc1ccc(C#N)cc1 | 31.5
Cn1nc(C(F)(F)F)cc1-c1cnc(N2CCc3cc(S(=O)(=O)Nc4c(F)cc(Cl)cc4F)cc(N4CCCC4=O)c32)nc1 | 121
C[C@@H](NC(=O)Nc1cc2[nH]ncc2c(CO)n1)c1ccccc1 | 62.5
C[C@@H](c1cccc(C#N)c1)n1cc(Cl)cc(C(N)=O)c1=N | 122
CCC(=O)N[C@@H]1CC[C@H](C(=O)N(C)c2ccc(-c3nc4ccccc4o3)cc2)C1 | 84.6
N#CC1(c2ccccn2)CCN(Cc2cc(C(=O)O)c(=O)n3ccccc23)CC1 | 94.5
Cc1nc(C2CCN(C(=O)c3ccc(OC(F)(F)F)cc3N)CC2)c2ncc(N3CCN(C)CC3)cc2n1 | 114
CC(=O)N1CCC(c2ccc(C(=O)NC3=NCCN3)cc2C(F)(F)F)CC1 | 89.4
COc1cc(-c2cn(C3CCc4c(F)cccc4N(CC(F)(F)F)C3=O)nn2)ccc1-n1cnc(C)c1 (stereo not drawn) | 122
C[C@H](c1ccc(F)cc1)N(Cc1cccc(C(=O)O)c1)C(=O)c1cnc2ccccc2c1 | 112
O=C(NNS(=O)(=O)c1ccccc1F)c1cc(F)cc(-c2ccccn2)c1 | 95.9
O=C(O)c1ccc(-c2c[nH]c3ncc(-c4ccccc4)cc23)cc1C1CCCC1 | 107
CNC(=O)c1cc(C(=O)N[C@H]2[C@@H]3COC[C@@H]32)cc2c1O[C@H](CF)[C@H]2c1ccccc1 | 90.6
Cc1cc(-n2nc(Cc3cc(F)cc(C(F)(F)F)c3)nc2C)ccc1C(N)=O | 104
COc1cc(-c2cn(C3CCc4ccccc4N(CC(F)(F)F)C3=O)nn2)ccc1-n1ccc(C)n1 (stereo not drawn) | 103
CO[C@H]1CC[C@H](CNc2ccc(S(=O)(=O)NC(=O)c3ccc(N4CCN(CC5=C(c6ccc(Cl)cc6)CC(C)(C)CC5)CC4)cc3Oc3cnc4[nH]ccc4c3)cc2[N+](=O)[O-])CC1 | 73.4
O=C1CCc2cc(Nc3cc(OC4CCOCC4)c([N+](=O)[O-])cc3Cl)ccc2N1 | 131

Study 3
SMILES: Cc1ccc(NC(=O)c2ccnc(C(F)(F)F)c2)cc1-c1cc(OCCO)nc(N2CCOCC2)c1
Observed: binding
Tested at: 1 µM
target | test | remaining binding
LIM domain kinase 2 (LIMK2, Homo sapiens, UniProt P53671) | competition with immobilised ligand | 88%
Tyrosine-protein kinase Lyn (LYN, Homo sapiens, UniProt P07948) | competition with immobilised ligand | 78%
Wee1-like protein kinase 2 (WEE2, Homo sapiens, UniProt P0C1S8) | competition with immobilised ligand | 100%
Receptor-type tyrosine-protein kinase FLT3 (FLT3, Homo sapiens, UniProt P36888, D835Y) | – | 100%
Activin receptor type-1 (ACVR1, Homo sapiens, UniProt Q04771) | competition with immobilised ligand | 100%
Tyrosine-protein kinase ITK/TSK (ITK, Homo sapiens, UniProt Q08881) | – | 100%
Mast/stem cell growth factor receptor Kit, autoinhibited (KIT, Homo sapiens, UniProt P10721) | competition with immobilised ligand | 75%
MAP kinase-activated protein kinase 5 (MAPKAPK5, Homo sapiens, UniProt Q8IW41) | – | 100%
Casein kinase II subunit alpha (CSNK2A1, Homo sapiens, UniProt P68400) | – | 85%
High affinity nerve growth factor receptor (NTRK1, Homo sapiens, UniProt P04629) | competition with immobilised ligand | 94%
Cyclin-dependent kinase 11B (CDK11B, Homo sapiens, UniProt P21127) | competition with immobilised ligand | 45%
Uncharacterized serine/threonine-protein kinase SBK3 (SBK3, Homo sapiens, UniProt P0C264) | – | 100%
Tyrosine-protein kinase Tec (TEC, Homo sapiens, UniProt P42680) | competition with immobilised ligand | 90%
Ribosomal protein S6 kinase alpha-5, C-terminal kinase domain (RPS6KA5, Homo sapiens, UniProt O75582) | competition with immobilised ligand | 100%

Study 4
Target: Cyclin-dependent kinase 5, with p35 (CDK5, Homo sapiens, UniProt Q00535)
Sequence of UniProt Q00535 (whole entry, looked up): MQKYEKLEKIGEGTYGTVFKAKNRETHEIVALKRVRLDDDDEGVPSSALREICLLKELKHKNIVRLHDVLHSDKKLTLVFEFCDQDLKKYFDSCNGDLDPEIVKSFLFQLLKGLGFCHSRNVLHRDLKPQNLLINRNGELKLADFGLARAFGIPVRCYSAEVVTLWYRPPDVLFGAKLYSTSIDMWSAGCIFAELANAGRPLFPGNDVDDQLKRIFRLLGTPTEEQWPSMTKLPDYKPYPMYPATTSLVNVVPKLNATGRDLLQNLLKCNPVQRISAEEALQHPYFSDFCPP
Observed: enzyme activity
Mode: inhibitor
Tested at: 0.5 µM
Relative to: control
Compound | remaining activity
O=C1c2ccccc2-c2nc3nnnn3nc21 | 79.1%
FC(F)(F)c1ccc(/C=C/c2nc(COc3ccc(CCCCn4ccnn4)cc3)co2)cc1 | 99.4%
CNc1cc2c(Nc3cccc(Br)c3)ncnc2cn1 | 100%
COc1cc2c(N3CCN(C(=O)Nc4ccc(OC(C)C)cc4)CC3)ncnc2cc1OCCCN1CCCCC1 | 99.4%
Clc1ccc(Nc2nnc(Cc3ccncc3)c3ccccc23)cc1 | 97.2%
CCN(CC)CCCCN1c2ccccc2Oc2ccc(Cl)cc21 | 90.3%
NC(=O)c1cccc(-c2cc(Nc3ccc(OC(F)(F)F)cc3)ncn2)c1 | 96%
O=C(c1ccccc1)c1ccc(N2CCOCC2)cc1O | 97%
NC(=O)c1ccc(-c2nc(-c3ccc4c(c3)OCCO4)c(-c3ccccn3)[nH]2)cc1 | 98%
C[C@@H](N)[C@H]1CC[C@H](C(=O)Nc2ccncc2)CC1 | 96.6%
c1cc(-c2cnn3cc(-c4ccc(OCCN5CCCCC5)cc4)cnc23)ccn1 | 67.7%
O=c1c(-c2ccc(F)cc2)c(-c2ccncc2)[nH]n1-c1ccc(Cl)cc1 | 104%
O=C(O)/C=C/c1cc(Br)c(Br)c(Br)c1Br | 92.4%
CC(C)n1cnc2c(Nc3cccc(Cl)c3)nc(NCCO)nc21 | 22.7%
N#CC(c1ccnc(NCCc2cccnc2)n1)c1nc2ccccc2s1 (stereo not drawn) | 97.2%
Nc1nc(Nc2ccc(S(N)(=O)=O)cc2)nn1C(=S)Nc1c(F)cccc1F | 11.3%
O=Nc1c(-c2c(O)[nH]c3ccccc23)[nH]c2ccccc12 | 23.8%
COc1cc2c(Nc3ccc(Br)cc3F)ncnc2cc1OCC1CCN(C)CC1 | 107%
CC(C)N(CCC(=O)c1ccc2ccccc2c1)Cc1ccccc1 | 103%
N#C/C(=C(/N)SC1C=CC=CC1)c1cccc(C(O)c2ccncc2)c1 (stereo not drawn) | 91%
O=C1NC(=O)/C(=C/c2ccc3c(c2)OC(F)(F)O3)S1 | 103%

For quick reference, copied from above (study 4):
Compound | remaining activity
O=C(c1ccccc1)c1ccc(N2CCOCC2)cc1O | 97%
CCN(CC)CCCCN1c2ccccc2Oc2ccc(Cl)cc21 | 90.3%
N#C/C(=C(/N)SC1C=CC=CC1)c1cccc(C(O)c2ccncc2)c1 (stereo not drawn) | 91%
O=Nc1c(-c2c(O)[nH]c3ccccc23)[nH]c2ccccc12 | 23.8%
N#CC(c1ccnc(NCCc2cccnc2)n1)c1nc2ccccc2s1 (stereo not drawn) | 97.2%
CC(C)n1cnc2c(Nc3cccc(Cl)c3)nc(NCCO)nc21 | 22.7%
C[C@@H](N)[C@H]1CC[C@H](C(=O)Nc2ccncc2)CC1 | 96.6%
Nc1nc(Nc2ccc(S(N)(=O)=O)cc2)nn1C(=S)Nc1c(F)cccc1F | 11.3%
COc1cc2c(Nc3ccc(Br)cc3F)ncnc2cc1OCC1CCN(C)CC1 | 107%
O=C1c2ccccc2-c2nc3nnnn3nc21 | 79.1%
COc1cc2c(N3CCN(C(=O)Nc4ccc(OC(C)C)cc4)CC3)ncnc2cc1OCCCN1CCCCC1 | 99.4%
